Published values gathered from unrelated publications.
Numbered parts are unrelated; each lists some results of a single study. Substitutions count along the parent as printed.

Set 1
Target: RNA binding protein fox-1 homolog 2, RRM domain, GST-SBP tag (RBFOX2, Homo sapiens, UniProt O43251-10, residues 100-194)
Method: RNA Bind-n-Seq
Molecule type: RNA
Sample: in vitro
Concentration: 365 nM
Setting: natural RNA segment, single round, ends assumed
Baseline: no-protein control
Direction: higher = stronger binding
Measurement: RBNS enrichment (R)
All sequences stand within: GGGAGUUCUACAGUCCGACGAUC … UGGAAUUCUCGGGUGCCAA
Target sequence (chain): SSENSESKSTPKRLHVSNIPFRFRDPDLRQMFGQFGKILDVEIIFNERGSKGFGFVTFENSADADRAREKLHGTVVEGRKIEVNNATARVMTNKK
UUUUUUGAGACCAAGUCUCACUCUGUUGCCCAGGCUGGAGUGCAGUGGCACGAUCUUGGCUUACUGCAACCUCCGUCUCCCAGGUUCAAGCGAUUCUCUUGCCUCAGCCU: 0.312
AAACUAAAUGCGUUUUUAAGCAAUUUUUAAGACUUGUAAUUACCCUAAAAAUAAGGUUUAUUAAGCCAAGACCAGACUUUUGAGCAGGGCAGCACUGCCAGGCUGUCGUC: 0.324
CUUAUCAAACUCAGCCCAAAACUCUGUUUACAUGGGUGGGGAGAUGGAGCAGGGAAGUACAGAGUGGGAUGGUCAGGACCUGGGCCAUUGCAACCAAAAUGGGGACUUCC: 0.408
CUGGUAAAGUCCUGCUGUGCAGAUGACUGCUGUCUCCUGGGAAGGUCUCGGCACGGAGCUCUCGAGGCUGUGCAGACCUGCUCGUGGAGGGCUUAGGCUGUCUUAGGUGC: 0.232
GUGGACUGAUUUUGCCUCACAUUAAAAACUCAUCCCAUGGCCAGGGCGGGCCACUGUGCUCCUGGAAGAUUCUCUGUUUAAGCACCCAGUGUCUUGCCCUGGGUUUUCUA: 0.598
AUUGUGCCCUUGGAAUUUAAUACAAGUGCCUAACCCACAGUAGGGUUGAUUGAUUCACUGAUUAGUUUUACUGCCAUGUGCCUAUAACUAUAGGUUAUUCUCUUUCCUUU: 0.292
AGUAUUUUCUGAAGACGCAUAUGGCAGACGGAUUUGCGUAUACCAAGGAGAGUGGCAUAGGAGGGAAAAGCAUAUGUGGCUGAAACCUGUAAGUUGGUGUUGGUUAUGCA: 1.39
AUCAAACACUGAAUCUUUUAUGUGAGCAGCUUAAGAAAAUAAAAGGAAAAGCCUUGCACUAGCACUCAGAGGGCUGCCCUGUGUGGAUACUGUCAUCUUGCAAUGGUUUA: 0.667
UCCCAUGCCACAAAGCAUCUCUCCACCCCCUUUUCAAGGAAUGCAGUUCUACAAACUGAUCUCCUUAACCACAACCAAGAUAGGCAUGUCACCAUGUCAAUUCCCCUUUU: 0.427
GCUUUUAAAAAAGUGUUCCCUAUUUAUUUAGGAAAAAGUGAAGCAAGCAACUGAAUUUAUAUGUAAAAAUAACAUUUAGACCUGUGGAUCAAAGAUUAUUUUCAAAAAUG: 0.421
UAAUUGCCUAUAAGUUUGCUGUUUCAGAGGCUAGCCCAAAGGCAUCAAAUUUAAUAAAGUUAAACAAAUUGAUUUACUUCAGAGCAAAUAUGAUCCUAUUAAAAUAAUAU: 0.332
UGUGGUGGCCCACAUGGCUCUGCCCAGUGUCCUGUGCUUUGCCACAGUCCUCUGGGGUCAGUGUCUCGGGCAGUGGGAUGGAACUGUGUGAUUGCUCUUAGGUGAGUUCC: 0.505

Set 2
Target: CCNF, cyclin fold, Cln2 fusion (human)
Method: yeast growth competition, sequencing
Sample: yeast
Setting: strong parent motif
Baseline: not given
Direction: higher = stronger binding
Measurement: normalised enrichment score
Parent: BRCA2 docking peptide (human); PSIKRNLLNEFDR
ISIKRNLLNEFDR [P1I]: 3.29
PSIKWNLLNEFDR [R5W]: 0.571
PSIKMNLLNEFDR [R5M]: 0.38
PSCKRNLLNEFDR [I3C]: 4.39
PSIKDNLLNEFDR [R5D]: 0.525
PSIKRNLLNEFLR [D12L]: 2.25
PSIKRNLLNECDR [F11C]: 0.155
PPIKRNLLNEFDR [S2P]: 2.73
PSIKRNWLNEFDR [L7W]: 1.51
PCIKRNLLNEFDR [S2C]: 2.47
PSIKRNCLNEFDR [L7C]: 0.0904
PSIKRNLLNGFDR [E10G]: 1.76
PSIKRNYLNEFDR [L7Y]: 1.56
PSIKRNLLNEFWR [D12W]: 3.02

Set 3
Target: Histone acetyltransferase KAT6A, winged helix 2, GST fusion (KAT6A, Homo sapiens, UniProt Q92794, residues 85-181)
Method: protein binding microarray
Molecule type: double-stranded DNA, one strand shown
Sample: in vitro
Concentration: not given
Setting: 8-mer, flanks averaged, mean of 2 arrays, mostly near background
Baseline: not given
Direction: higher = stronger binding
Measurement: E-score
Target sequence (chain): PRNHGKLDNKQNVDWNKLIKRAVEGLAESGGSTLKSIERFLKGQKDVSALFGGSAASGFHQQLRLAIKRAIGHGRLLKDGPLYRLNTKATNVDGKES
CTCCTTCC: -0.138
GGAGTGGA: -0.0299
ATTTATCG: 0.00754
AGTAAGTC: -0.256
AAATCGTA: -0.202
CACGTAAA: -0.191
CGGGCAAC: 0.168
AGACCTCC: -0.0545
GGCCTCAC: 0.0563
ACAGCCGG: 0.0955
TATTGTGA: -0.185
CGTGTTTA: -0.00239
CCGAACAC: -0.042
AACCCGGA: 0.0366
GACTGCTA: -0.119
ATTCAGGC: 0.0818
CCTGTTGA: 0.12

Set 4
Target: Interferon regulatory factor 5, full length, phosphomimetic (IRF5, Homo sapiens, UniProt Q13568-2, residues 1-514, S451D/S453D/S456D/S462D)
Method: protein-binding microarray
Molecule type: double-stranded DNA, one strand shown
Sample: in vitro
Concentration: 940 nM top
Setting: 60-bp whole probe
Added: salmon DNA 0.4 mg/ml
Baseline: random background probes
Direction: higher = stronger binding
Measurement: fitted relative affinity
All sequences stand within: GCCTAGCAC … GTCTTGATTCGCTTGACGCTGCTG
GAGATTTCCATTATTGCTTCGTGCTAG: 0.7 z-score
TTAGGACTGCTACTTCTTTAGTGCTAG: -0.575 z-score
GACGGACTGGGGTTCCGGGACGTGCTA: -0.395 z-score
GACGGCATCGGGACTGGGGACGTGCTA: -0.381 z-score
ATAGGTTTCGGGTATCGGTTAGTGCTA: 9.94 z-score
GACGGTATTGGGTATCGGGACGTGCTA: 1.79 z-score
TTTTTTTTTTTTCTGATCCAGTGCTAG: 1.24 z-score
GACGATATCGGGACTGGACACGTGCTA: -0.0392 z-score
GACGATTTCAGTTCGGAGACGTGCTAG: 0.221 z-score
GACGATATCAGACTTGAGACGTGCTAG: -0.781 z-score
TTAAGACTGGACTTTCGGTTAGTGCTA: 2.7 z-score
TTAAGTCTCGGACTGGGTTAGTGCTAG: 1.68 z-score
CTTGATTTTGGTCTTTCTGTGTGCTAG: 0.711 z-score

Set 5
Target: Prothrombin, mature alpha-thrombin (F2, Homo sapiens, UniProt P00734)
Method: aptamer microarray, sandwich
Molecule type: DNA with 2'F-ANA
Sample: in vitro
Concentration: 200 nM
Setting: whole 15-mer aptamer, many near background
Added: Cy3 exosite-II aptamer, 400 nM
Direction: higher = stronger binding
Measurement: mean fluorescence intensity
Strand: GGTTGGTGTGGTTGG
2'F-ANA at 1 2 3 4 6 13 15: 94.1 a.u.
2'F-ANA at 1 2 3 6 9 10 12 14: 53.7 a.u.
2'F-ANA at 1 2 3 4 6 7 9 12 13 15: 174 a.u.
2'F-ANA at 6 8 9 12 14: 242 a.u.
2'F-ANA at 1 4 5 9 10 11 12 14 15: 76.1 a.u.
2'F-ANA at 1 3 5 7 8 9 13 14: 46.8 a.u.
2'F-ANA at 1 2 3 4 5 7 9 10 14 15: 44.5 a.u.
2'F-ANA at 2 3 7 9 13: 701 a.u.
2'F-ANA at 1 2 3 4 6 7 9 12 13 14 15: 70.1 a.u.
2'F-ANA at 1 2 6 8 9 11 12 13 15: 238 a.u.
2'F-ANA at 2 3 4 6 7 9 11 13 14 15: 180 a.u.
2'F-ANA at 5 6 7 8 9 10 12 14 15: 45.8 a.u.
2'F-ANA at 2 3 8 9 10 11 13 14: 225 a.u.
2'F-ANA at 4 6 8 12: 596 a.u.

Set 6
Target: ABI1, truncated, D143A, DHFR fusion (Arabidopsis thaliana)
Method: DHFR PCA, deep sequencing
Sample: yeast
Setting: methotrexate growth selection, single substitutions
Added: (+)-ABA 0.0091 µM
Baseline: wild-type fitted maximum
Direction: higher = stronger binding
Measurement: relative binding score
Parent: PYL1, truncated, DHFR fusion (Arabidopsis thaliana); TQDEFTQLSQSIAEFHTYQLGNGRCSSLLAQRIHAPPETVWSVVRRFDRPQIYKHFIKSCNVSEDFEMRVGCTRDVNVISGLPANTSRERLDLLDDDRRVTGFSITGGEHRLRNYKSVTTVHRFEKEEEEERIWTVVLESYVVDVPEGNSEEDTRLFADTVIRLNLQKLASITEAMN
F66D: -0.591%
V43A: 2.64%
W41A: -7.82%
R155K: 41.5%
F124Q: 5.96%
V76A: -2.3%
F157W: 29.3%
H55D: -7.46%
T106A: -2.98%
Y115C: 1.4%
M68S: 0.323%
R111H: 14.7%

Some of these lines once more (set 5):
2'F-ANA at 1 2 3 6 9 10 12 14: 53.7 a.u.
2'F-ANA at 1 2 3 4 6 7 9 12 13 15: 174 a.u.
2'F-ANA at 6 8 9 12 14: 242 a.u.
2'F-ANA at 1 4 5 9 10 11 12 14 15: 76.1 a.u.
2'F-ANA at 1 3 5 7 8 9 13 14: 46.8 a.u.
2'F-ANA at 1 2 3 4 5 7 9 10 14 15: 44.5 a.u.
